# Experimental data collected from several papers.
# Each line is one published result; not all experiments were run side by side. Several values in a cell are separate wells, animals, samples, runs or records.
# Nuclear receptor subfamily 2 group C member 2 ligand-binding domain: Nuclear receptor subfamily 2 group C member 2, ligand-binding domain (Homo sapiens, UniProt P49116)
# Chain of UniProt P49116 (whole entry, looked up): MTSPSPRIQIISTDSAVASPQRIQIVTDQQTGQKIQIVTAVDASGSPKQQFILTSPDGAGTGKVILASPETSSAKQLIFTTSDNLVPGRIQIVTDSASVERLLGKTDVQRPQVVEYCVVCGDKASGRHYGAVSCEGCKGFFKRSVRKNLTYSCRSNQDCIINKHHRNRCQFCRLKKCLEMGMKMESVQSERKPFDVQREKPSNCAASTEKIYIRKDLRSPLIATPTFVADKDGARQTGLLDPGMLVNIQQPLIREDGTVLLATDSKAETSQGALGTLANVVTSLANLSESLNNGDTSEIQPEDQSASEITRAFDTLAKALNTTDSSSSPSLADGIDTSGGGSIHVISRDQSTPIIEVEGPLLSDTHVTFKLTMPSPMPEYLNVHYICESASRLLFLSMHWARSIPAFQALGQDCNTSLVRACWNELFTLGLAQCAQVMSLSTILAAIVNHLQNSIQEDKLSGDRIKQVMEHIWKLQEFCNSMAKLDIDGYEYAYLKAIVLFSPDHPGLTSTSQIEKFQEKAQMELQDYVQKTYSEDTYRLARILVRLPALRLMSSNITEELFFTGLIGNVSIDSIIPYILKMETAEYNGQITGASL
Structure (SMILES),target or system,test,test system,setting,how to read,quantity,result
Nc1ncnc2c1ncn2[C@@H]1O[C@H](CO)[C@@H](O)[C@H]1O,Nuclear receptor subfamily 2 group C member 2 ligand-binding domain,SPR imaging,,,,Kd,12.4 nM
CCOC(=O)N1CCC(CN(Cc2ccc(Cl)cc2)Cc2ccc([N+](=O)[O-])s2)C1 (centres unmarked),"HepG2, control siRNA","transcription, qPCR, measured: BMAL1 mRNA",,concentration not given,,inhibition,43%
O=C(O)CCCc1ccccc1,OCI-Ly1,,,"0.5 µM, 120 h",,viability,150%
O=C(COc1cccc2c1C(=O)N(C1CCC(=O)NC1=O)C2=O)NCCOCCOCCNS(=O)(=O)Nc1cccc(-c2cn3cc(C(=O)NC4CCC4)ccc3n2)c1 (centres unmarked),MV4-11,"TMT proteomics, measured: ALDOA",whole proteome,"10 µM, 16 h",baseline: DMSO,log2 fold change,-0.057
Cn1cc(-n2cnc3c(NCc4nc5cc(Cl)c(Cl)cc5[nH]4)nc(N4CCOCC4)nc32)cn1,MDA-MB-231,"qRT-PCR, measured: SMARCC2",,"0.05 µM, 6 h, unit not given",baseline: DMSO,mRNA level,0.814 and 0.741 and 0.674
CC(C)NCCCn1c(Sc2cc3c(cc2I)OCO3)nc2c(N)ncnc21,iPSC-derived cardiomyocytes,concentration-response fit,,,baseline: vehicle,fitted bottom MyBP-C/MYH ratio,35.2%
O=C1Cc2cc(CCN3CCN(c4nsc5ccccc45)CC3)c(Cl)cc2N1,Nuclear receptor subfamily 2 group C member 2 ligand-binding domain,SPR imaging,,,,Kd,0.0249 nM
C[C@]12O[C@H](C[C@]1(O)CO)n1c3ccccc3c3c4c(c5c6ccccc6n2c5c31)CNC4=O,OCI-Ly1,,,"0.5 µM, 120 h",,viability,25.8%
CC(=O)Nc1cccc(-n2c(=O)n(C3CC3)c(=O)c3c(Nc4ccc(I)cc4F)n(C)c(=O)c(C)c32)c1,COLO 205 (BRAF V600E),,,50.00 nM,baseline: DMSO,fractional effect,93%
O=C(/C=C/c1ccc(O)cc1)c1ccc(O)cc1O,OCI-Ly1,,,"0.5 µM, 120 h",,viability,153%
CC(C)NCC(O)c1ccc(O)c(O)c1 (centres unmarked),mouse ventricular cardiomyocytes,,,"dose not given, 0.179 s",,sarcomere length,1.64 µm
COc1cc2c(NC3CCN(CC4CCCCC4)CC3)nc(N3CCCN(C(C)C)CC3)nc2cc1OCCCN1CCCCC1,OCI-Ly1,,,"1 µM, 120 h",,viability,88.8%
Cn1cc(Nc2nccc(-c3ccc4c(c3)CN(C3COC3)CC[C@H]4NC(=O)c3cn(C(C)(C)C)nn3)n2)cn1,mouse splenic B cells,measured: Gαs signalling,,"30 mg/kg, IgD-activated in vivo","baseline: vehicle, direction not given",pathway activation z-score,2.89
Nc1ccn([C@@H]2O[C@H](CO)[C@@H](O)C2(F)F)c(=O)n1,OCI-Ly1,,,"0.1 µM, 120 h",,viability,1.99%
O=C1N(Cc2ccccc2Cl)c2ccccc2C12NN=C(c1ccccc1)S2 (centres unmarked),NSCLC and TNBC cells,"Western blot, measured: cyclin B1",,concentration not given,,protein level,decreased
Cn1cc(-c2ccc(-c3cncc(Cl)c3N3CCC4(CCNC4=O)CC3)cc2)cn1,COLO 205,"gene expression, microarray, measured: LY9 mRNA",,"concentration not given, 2 h",baseline: untreated cells,log2 fold change,-2.02
O=C(/C=C/C=C/C=C/C1CCCCC1)NC1=C[C@@](O)(/C=C/C=C/C=C/C(=O)NC2=C(O)CCC2=O)[C@@H]2O[C@@H]2C1=O,SJSA-1,"cell growth, CellTiter-Glo",,78 h,,GI50,14400 nM
O=C(O)C(Cc1c[nH]c2ccccc12)N1C(=O)c2ccccc2C1=O (centres unmarked),OCI-Ly1,,,"0.1 µM, 120 h",,viability,186%
CCn1c(=O)/c(=C2\Sc3cc(Cl)ccc3N2C)s/c1=C\c1scc[n+]1Cc1ccccc1.[Cl-],human cells,plate-normalised,,"concentration not given, hit retest","baseline: vehicle controls, SDs below control",MyBP-C level change,6.94 SD
CNCc1ccc(-c2[nH]c3cc(F)cc4c3c2CCNC4=O)cc1,OCI-Ly1,,,"1 µM, 120 h",,viability,160%
CCn1cc(-c2cc(Cn3ccnc3)cc3c2CCN([C@H](c2cc(OC)ccn2)C2CC2)C3=O)c(C(F)(F)F)n1,G-361,"cell growth, inhibitor",,120 h,,EC50,4.03 nM
CN(C)c1ccc2nc3ccc(=[N+](C)C)cc-3sc2c1,mouse CA1 pyramidal neurons,patch clamp,hippocampal slices,10 µM,,mIPSC frequency,decreased
CCCCc1nc(Cl)c(CO)n1Cc1ccc(-c2ccccc2-c2nn[nH]n2)cc1,human PBMC,"RNA-seq, measured: CLEC10A mRNA",,"10 µg/mL, 24 h",baseline: untreated control,log2 fold change,-2.09

# Repeated from above:
Structure (SMILES),target or system,test,test system,setting,how to read,quantity,result
CCOC(=O)N1CCC(CN(Cc2ccc(Cl)cc2)Cc2ccc([N+](=O)[O-])s2)C1 (centres unmarked),"HepG2, control siRNA","transcription, qPCR, measured: BMAL1 mRNA",,concentration not given,,inhibition,43%
O=C(O)CCCc1ccccc1,OCI-Ly1,,,"0.5 µM, 120 h",,viability,150%
